Published values collected from several papers.
Compare with care: the assays were run in different laboratories.
Target: Rhodopsin kinase GRK7 (GRK7, Homo sapiens, UniProt Q8WTQ7)

CC(C)=CC1OC(C)(C)C2C=C3C(=O)C(Cl)=CC(O)C3C3C(O)C4OC4C(=O)C132 (centres unmarked)
remaining binding (cell-free assay, competition with immobilised ligand; 10 µM): 82%

Nc1ncc2c(n1)-c1c([nH]c3ccc(C4=CCOCC4)cc13)CCC2
remaining binding (binding, competition with immobilised ligand; 1 µM): 70%

CCn1cc(C(=O)O)c(=O)c2c(N)c(F)c(NC3CCCCC3)cc21
inhibition (kinase activity; 0.1 µM, added: ATP at Km): 36.5%

Cc1cccc(O[C@H]2CCC[C@@H](C(C)CNCc3ccncc3)C2)c1 (relative stereo)
inhibition (enzyme activity, inhibitor; 1 µM): 7%

NC(=O)C[C@H]1CCc2sc3ncnc(O[C@H]4CC[C@H](N5CCOCC5)CC4)c3c21
inhibition (enzyme activity, inhibitor; 10 µM): 1%

Cc1ccc(-c2c(/C=C(\C#N)C(=O)NC(C)C)n(CCCO)c3ncnc(N)c23)cc1
remaining binding (cell-free assay, competition with immobilised ligand; 1 µM): 100%

COc1c(Cl)cccc1Nc1c(-c2ccncc2C#C[C@@]2(C)CCCN2C(=O)/C=C/CN(C)C)[nH]c2c1C(=O)NCC2
remaining binding (binding, competition with immobilised ligand; 3 µM): 93%

Nc1ncc(-c2cc(-c3cnn(CC(F)(F)F)c3)ncc2F)nc1C(=O)NC1CNCC(F)C1 (centres unmarked)
remaining activity (enzyme activity; 1 µM; relative to: DMSO control): 78%

O=C(Cc1ccc(OCc2ccccc2)cc1)NC1(C(=O)O)CCN(C(=O)c2ccc(-c3cccc(Cl)c3)cc2)CC1
activity vs control (enzyme activity, inhibitor; 10 µM): 104%

CNC(=O)C1CCN(c2cc(C)c(F)cc2NC(=O)c2ccc(-c3cc(O)ccc3C)c(C)c2)CC1
remaining binding (binding, competition with immobilised ligand; 1 µM): 100%

CNC(=O)C[C@H](Cc1ccc(C#N)cc1)NC(=O)c1cc(-c2ccc(CN[C@H](C)c3ccc(C)cc3)o2)ccc1Cl
activity vs control (enzyme activity, inhibitor; 1 µM): 104%

COc1cc(Nc2nc(C)cc(-c3cnn4nc(OC)ccc34)n2)cc(C(F)(F)F)c1
remaining activity (inhibitor; 1 µM; relative to: control): 83%

Cc1nc2c(F)cc(-c3nc(Nc4ccc(CNC(=O)CCCCCCC(=O)NO)cc4)ncc3F)cc2n1C(C)C
inhibition (enzyme activity, inhibitor; 1 µM): 19%

CNC1C[S+]2CC[S+]3CC[S+](C1)[Ru-4]321([N]=C=S)[n]2c3ccc(OC)cc3c3c4c(c5cc(F)c[n+]1c5c32)C(=O)NC4=O (centres unmarked)
remaining binding (KinomeScan; 0.1 µM; relative to: untreated): 8.4%

For quick reference, copied from above:
Cc1nc2c(F)cc(-c3nc(Nc4ccc(CNC(=O)CCCCCCC(=O)NO)cc4)ncc3F)cc2n1C(C)C
inhibition (enzyme activity, inhibitor; 1 µM): 19%

Cc1ccc(-c2c(/C=C(\C#N)C(=O)NC(C)C)n(CCCO)c3ncnc(N)c23)cc1
remaining binding (cell-free assay, competition with immobilised ligand; 1 µM): 100%
